{"sequences": {"note": "The chains behind the UniProt entries cited, without tags or fusion partners. Residues count along the entry.", "UniProt P12004, whole entry": "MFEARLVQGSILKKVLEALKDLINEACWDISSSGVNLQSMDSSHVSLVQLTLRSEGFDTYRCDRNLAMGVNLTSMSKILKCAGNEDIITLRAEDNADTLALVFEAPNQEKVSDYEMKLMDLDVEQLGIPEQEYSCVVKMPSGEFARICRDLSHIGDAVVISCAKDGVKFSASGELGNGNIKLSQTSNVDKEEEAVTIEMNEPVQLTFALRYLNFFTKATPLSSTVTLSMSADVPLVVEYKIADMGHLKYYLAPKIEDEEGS", "UniProt P30405, whole entry, looked up": "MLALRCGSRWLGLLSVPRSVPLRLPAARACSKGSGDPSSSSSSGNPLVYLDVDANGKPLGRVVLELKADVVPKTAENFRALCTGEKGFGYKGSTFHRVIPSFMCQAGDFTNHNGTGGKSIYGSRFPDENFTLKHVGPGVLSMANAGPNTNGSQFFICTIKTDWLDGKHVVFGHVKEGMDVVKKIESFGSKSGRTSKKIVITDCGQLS", "UniProt P31751, whole entry": "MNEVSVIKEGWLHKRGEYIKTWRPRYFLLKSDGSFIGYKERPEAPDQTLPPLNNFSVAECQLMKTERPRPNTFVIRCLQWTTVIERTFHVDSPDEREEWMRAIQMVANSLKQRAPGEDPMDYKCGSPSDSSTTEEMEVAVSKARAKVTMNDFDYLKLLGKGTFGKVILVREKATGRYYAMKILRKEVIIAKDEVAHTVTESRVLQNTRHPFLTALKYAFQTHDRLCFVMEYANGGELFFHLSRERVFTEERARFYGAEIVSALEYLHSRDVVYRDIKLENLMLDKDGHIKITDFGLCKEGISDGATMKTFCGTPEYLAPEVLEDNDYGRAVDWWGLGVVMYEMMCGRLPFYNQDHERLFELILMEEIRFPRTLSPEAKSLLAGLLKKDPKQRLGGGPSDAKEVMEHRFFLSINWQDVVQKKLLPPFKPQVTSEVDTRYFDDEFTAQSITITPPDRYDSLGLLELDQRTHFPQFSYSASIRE", "UniProt P08253, 110-660 limits assumed": "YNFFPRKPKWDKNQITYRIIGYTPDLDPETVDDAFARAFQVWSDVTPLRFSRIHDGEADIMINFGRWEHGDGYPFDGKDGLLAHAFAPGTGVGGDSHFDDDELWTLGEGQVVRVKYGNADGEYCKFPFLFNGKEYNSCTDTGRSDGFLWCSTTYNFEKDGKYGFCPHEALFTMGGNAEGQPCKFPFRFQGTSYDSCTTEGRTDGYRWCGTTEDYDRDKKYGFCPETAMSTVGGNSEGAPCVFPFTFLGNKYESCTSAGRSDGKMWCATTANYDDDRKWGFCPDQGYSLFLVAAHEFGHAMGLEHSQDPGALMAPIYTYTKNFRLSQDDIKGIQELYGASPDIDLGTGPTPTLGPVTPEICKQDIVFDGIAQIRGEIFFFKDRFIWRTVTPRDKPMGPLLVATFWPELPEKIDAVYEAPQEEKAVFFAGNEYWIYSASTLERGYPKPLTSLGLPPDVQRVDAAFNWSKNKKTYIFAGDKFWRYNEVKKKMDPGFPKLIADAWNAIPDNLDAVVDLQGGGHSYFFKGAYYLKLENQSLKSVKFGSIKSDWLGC", "UniProt P05106, 27-788 limits assumed": "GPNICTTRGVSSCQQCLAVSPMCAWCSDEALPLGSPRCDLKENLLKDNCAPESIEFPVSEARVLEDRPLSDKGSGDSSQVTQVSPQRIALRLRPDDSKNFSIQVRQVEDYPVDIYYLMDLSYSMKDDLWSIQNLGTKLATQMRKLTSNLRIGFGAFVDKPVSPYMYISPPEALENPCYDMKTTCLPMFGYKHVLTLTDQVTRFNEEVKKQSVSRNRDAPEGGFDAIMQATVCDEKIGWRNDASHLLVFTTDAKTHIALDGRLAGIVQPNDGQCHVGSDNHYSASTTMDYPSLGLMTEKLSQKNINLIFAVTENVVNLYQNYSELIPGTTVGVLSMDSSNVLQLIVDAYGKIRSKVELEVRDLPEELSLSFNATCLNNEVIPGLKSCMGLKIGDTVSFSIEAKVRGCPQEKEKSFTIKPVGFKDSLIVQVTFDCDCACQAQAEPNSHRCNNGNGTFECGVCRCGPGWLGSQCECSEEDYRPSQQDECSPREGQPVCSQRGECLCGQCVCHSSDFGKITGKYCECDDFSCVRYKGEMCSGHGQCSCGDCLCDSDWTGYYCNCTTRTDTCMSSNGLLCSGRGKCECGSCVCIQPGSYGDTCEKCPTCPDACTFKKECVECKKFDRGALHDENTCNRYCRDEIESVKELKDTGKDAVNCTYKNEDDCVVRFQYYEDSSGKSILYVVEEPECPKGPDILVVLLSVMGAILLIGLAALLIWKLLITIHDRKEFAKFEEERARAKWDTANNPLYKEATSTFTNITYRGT", "UniProt P06756, 31-889 limits assumed": "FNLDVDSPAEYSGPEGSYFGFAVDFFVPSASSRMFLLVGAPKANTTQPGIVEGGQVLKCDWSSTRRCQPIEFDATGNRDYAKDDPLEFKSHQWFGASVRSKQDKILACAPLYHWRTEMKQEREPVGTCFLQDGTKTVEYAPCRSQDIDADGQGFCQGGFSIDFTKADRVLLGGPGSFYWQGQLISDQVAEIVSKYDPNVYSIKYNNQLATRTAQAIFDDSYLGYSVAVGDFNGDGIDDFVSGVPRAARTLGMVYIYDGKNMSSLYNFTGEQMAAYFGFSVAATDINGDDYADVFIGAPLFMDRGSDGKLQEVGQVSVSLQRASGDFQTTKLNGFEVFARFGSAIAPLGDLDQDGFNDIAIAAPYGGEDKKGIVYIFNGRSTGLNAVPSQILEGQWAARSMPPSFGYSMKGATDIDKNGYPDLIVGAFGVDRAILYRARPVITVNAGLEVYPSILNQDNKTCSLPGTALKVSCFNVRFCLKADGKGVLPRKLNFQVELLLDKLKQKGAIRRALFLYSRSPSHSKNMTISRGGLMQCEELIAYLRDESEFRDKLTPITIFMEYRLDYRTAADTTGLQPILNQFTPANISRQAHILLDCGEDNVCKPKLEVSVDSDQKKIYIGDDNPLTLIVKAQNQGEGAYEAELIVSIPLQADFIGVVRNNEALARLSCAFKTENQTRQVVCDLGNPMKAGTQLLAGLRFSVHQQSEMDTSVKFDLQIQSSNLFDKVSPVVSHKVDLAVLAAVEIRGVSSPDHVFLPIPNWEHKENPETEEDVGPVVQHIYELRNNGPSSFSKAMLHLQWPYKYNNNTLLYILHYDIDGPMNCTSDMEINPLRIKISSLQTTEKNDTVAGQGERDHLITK", "UniProt P06756, 891-1048 limits assumed": "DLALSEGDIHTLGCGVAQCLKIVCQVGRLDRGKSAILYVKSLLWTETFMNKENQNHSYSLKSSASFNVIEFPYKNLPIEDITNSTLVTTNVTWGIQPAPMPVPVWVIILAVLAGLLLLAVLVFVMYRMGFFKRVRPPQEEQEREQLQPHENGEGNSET", "UniProt P22629, 25-183 limits assumed": "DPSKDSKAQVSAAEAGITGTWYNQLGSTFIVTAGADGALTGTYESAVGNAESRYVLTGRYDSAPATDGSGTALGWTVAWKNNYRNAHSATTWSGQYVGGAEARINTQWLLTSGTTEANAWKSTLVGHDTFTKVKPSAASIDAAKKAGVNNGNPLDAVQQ", "UniProt O14907, 9-120 limits assumed": "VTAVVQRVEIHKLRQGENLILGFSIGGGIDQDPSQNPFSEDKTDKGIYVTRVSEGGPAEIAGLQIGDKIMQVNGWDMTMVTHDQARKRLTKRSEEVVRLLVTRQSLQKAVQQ", "UniProt Q01727, whole entry": "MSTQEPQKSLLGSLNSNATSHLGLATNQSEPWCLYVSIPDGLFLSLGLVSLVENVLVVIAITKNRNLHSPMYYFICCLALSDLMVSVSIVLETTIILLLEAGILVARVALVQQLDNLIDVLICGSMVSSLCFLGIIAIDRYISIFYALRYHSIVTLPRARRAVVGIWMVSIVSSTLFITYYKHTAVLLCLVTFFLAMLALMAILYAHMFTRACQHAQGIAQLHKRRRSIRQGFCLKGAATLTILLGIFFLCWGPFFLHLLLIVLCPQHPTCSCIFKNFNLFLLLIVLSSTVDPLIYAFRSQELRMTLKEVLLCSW"}, "data": "Earlier results as cited in several papers", "PCNA": "Proliferating cell nuclear antigen (PCNA, Homo sapiens, UniProt P12004)", "note": "Protocols differ between the studies behind these lines. ± marks the error that the study gave."}
{"SMILES": "CC[C@H](C)[C@H](NC(=O)[C@H](CCCCN)NC(=O)[C@H](CCCNC(=N)N)NC(=O)[C@H](CCSC)NC(=O)[C@H](CO)NC(=O)[C@@H](N)CO)C(=O)N[C@@H](CS)C(=O)N[C@H](C(=O)N[C@@H](Cc1ccc(O)cc1)C(=O)N[C@@H](Cc1ccccc1)C(=O)N[C@@H](Cc1c[nH]cn1)C(=O)N[C@@H](CCCNC(=N)N)C(=O)N[C@@H](CCCCN)C(=O)N[C@@H](CO)C(=O)O)[C@@H](C)O", "target": "PCNA", "test": "binding", "measurement": "Kd", "value": "0.057 µM"}
{"SMILES": "CSc1ccccc1[C@H]1CCCN1C(=O)CNC(=O)NCc1ccc(N)cc1", "target": "PPIF (Homo sapiens, UniProt P30405)", "measurement": "Kd", "value": "0.285 µM"}
{"SMILES": "CC[C@H](C)[C@H](NC(=O)[C@H](CO)NC(=O)[C@@H](NC(=O)[C@H](CCC(N)=O)NC(=O)[C@H](CCCNC(=N)N)NC(=O)[C@H](CC(N)=O)NC(=O)[C@H](C)NC(=O)[C@@H](N)CCCCN)C(C)C)C(=O)N[C@H](C(=O)NCC(=O)N[C@@H](Cc1ccccc1)C(=O)N[C@@H](Cc1ccccc1)C(=O)N[C@@H](CCC(N)=O)C(=O)N[C@@H](CCCNC(=N)N)C(=O)N[C@@H](CCCCN)C(=O)O)[C@@H](C)O", "target": "PCNA", "test": "binding", "measurement": "Kd", "value": "15.6 µM"}
{"SMILES": "CC(C)C[C@@H](NC(=O)[C@@H](CCCCN)NC(=O)[C@H](NC(=O)[C@@H](CCCCN)NC(=O)[C@H](N)Cc1c[nH]c2ccccc12)C(C)C)C(N)=O", "target": "RAC-beta serine/threonine-protein kinase, phosphorylated (AKT2, Homo sapiens, UniProt P31751)", "test": "binding, binder", "system": "p-Ser474 epitope peptide", "conditions": "near p-Ser474 site", "measurement": "EC50", "value": "3.6 µM"}
{"SMILES": "CC[C@H](C)[C@H](NC(=O)[C@@H](NC(=O)[C@H](CO)NC(=O)[C@@H](NC(=O)[C@H](CCC(N)=O)NC(=O)[C@H](Cc1c[nH]c2ccccc12)NC(=O)[C@H](CCCNC(=N)N)NC(=O)[C@H](CO)NC(=O)[C@H](CC(N)=O)NC(=O)[C@H](C)NC(=S)Nc1ccc2c(c1)C(=O)OC21c2ccc(O)cc2Oc2cc(O)ccc21)[C@@H](C)O)[C@@H](C)CC)C(=O)O", "target": "GOPC (Homo sapiens, UniProt Q9HD26)", "test": "binding, fluorescence polarization", "conditions": "fluorescent reporter peptide", "measurement": "Kd", "value": "1.03 µM"}
{"SMILES": "CC(C)C[C@H](NC(=O)[C@@H]1CCCN1)C(=O)NCC(=O)N[C@H](C(=O)N[C@@H](CCCNC(=N)N)C(=O)O)C(C)C", "target": "MMP2 (Homo sapiens, UniProt P08253)", "test": "substrate", "measurement": "Km", "value": "290 µM"}
{"SMILES": "N=C(N)NCCC[C@@H]1NC(=O)[C@H](CCCCNC(=O)CCOCCOCCOCCOCCNC(=O)CC[C@H](NC(=O)CCOCCOCCOCCOCCNC(=O)c2ccc(NN)nc2)C(=O)NCCOCCOCCOCCOCCC(=O)NCCCC[C@@H]2NC(=O)[C@@H](Cc3ccccc3)NC(=O)[C@H](CC(=O)O)NC(=O)CNC(=O)[C@H](CCCNC(=N)N)NC2=O)NC(=O)[C@@H](Cc2ccccc2)NC(=O)[C@H](CC(=O)O)NC(=O)CNC1=O", "target": "Integrin alpha-V/beta-3 (Homo sapiens, UniProt P05106+P06756)", "test": "binding", "measurement": "IC50", "value": "0.051 ± 0.007 µM"}
{"SMILES": "CC[C@H](C)[C@H](NC(=O)[C@H](CCCCN)NC(=O)[C@H](CO)NC(=O)[C@H](CC(=O)O)NC(=O)[C@H](CCCCN)NC(=O)[C@H](CCCCN)NC(=O)CNC(=O)[C@H](Cc1c[nH]cn1)NC(=O)[C@@H](N)CCC(N)=O)C(=O)N[C@H](C(=O)N[C@@H](CC(=O)O)C(=O)N[C@@H](Cc1c[nH]cn1)C(=O)N[C@@H](Cc1ccccc1)C(=O)N[C@@H](CCSC)C(=O)N[C@@H](CCCNC(=N)N)C(=O)N[C@@H](CC(C)C)C(=O)N1CCC[C@H]1C(=O)N[C@@H](CCCCN)C(=O)N[C@@H](C)C(=O)O)[C@@H](C)O", "target": "PCNA", "test": "binding", "measurement": "Kd", "value": "3.3 µM"}
{"SMILES": "NC(=O)CC[C@H](NC(=O)[C@@H]1CCCN1C(=O)[C@@H](N)Cc1c[nH]cn1)C(=O)O", "target": "Streptavidin (Streptomyces avidinii, UniProt P22629)", "measurement": "Kd", "value": "> 100 µM"}
{"SMILES": "CC[C@H](C)[C@H](NC(=O)[C@@H](NC(=O)[C@H](CO)NC(=O)[C@@H](NC(=O)[C@@H]1CCCN1C(=O)[C@H](Cc1c[nH]c2ccccc12)NC(=O)[C@H](CCCNC(=N)N)NC(=O)[C@H](CO)NC(=O)[C@H](CC(N)=O)NC(=O)[C@H](C)NC(=S)Nc1ccc2c(c1)C(=O)OC21c2ccc(O)cc2Oc2cc(O)ccc21)[C@@H](C)O)[C@@H](C)CC)C(=O)O", "target": "Tax1-binding protein 3, PDZ domain (TAX1BP3, Homo sapiens, UniProt O14907)", "test": "binding, fluorescence polarization", "conditions": "fluorescent reporter peptide", "measurement": "Kd", "value": "0.2 µM"}
{"SMILES": "CCCC[C@@H]1NC(=O)[C@@H](NC(=O)[C@H](CCC(=O)O)NC(=O)CNC(=O)CN2CCN(CC(=O)O)CCN(CC(=O)O)CCN(CC(=O)O)CC2)CCCCNC(=O)C[C@@H](C(N)=O)NC(=O)[C@H](C(C)C)NC(=O)[C@@H]2CCCN2C(=O)[C@H](CCCNC(=N)N)NC(=O)CNC(=O)[C@H](Cc2c[nH]c3ccccc23)NC(=O)[C@H](CCCNC(=N)N)NC(=O)[C@@H](Cc2ccccc2)NC(=O)[C@H](Cc2c[nH]cn2)NC(=O)[C@H](CCC(=O)O)NC1=O [isotope labelled]", "target": "Mc1r (Mus musculus, UniProt Q01727)", "test": "receptor binding", "system": "B16-F1", "measurement": "IC50", "value": "0.0008 µM"}
{"note": "For quick reference, copied from above:"}
{"SMILES": "CC(C)C[C@@H](NC(=O)[C@@H](CCCCN)NC(=O)[C@H](NC(=O)[C@@H](CCCCN)NC(=O)[C@H](N)Cc1c[nH]c2ccccc12)C(C)C)C(N)=O", "target": "RAC-beta serine/threonine-protein kinase, phosphorylated (AKT2, Homo sapiens, UniProt P31751)", "test": "binding, binder", "system": "p-Ser474 epitope peptide", "conditions": "near p-Ser474 site", "measurement": "EC50", "value": "3.6 µM"}
{"SMILES": "CC[C@H](C)[C@H](NC(=O)[C@@H](NC(=O)[C@H](CO)NC(=O)[C@@H](NC(=O)[C@H](CCC(N)=O)NC(=O)[C@H](Cc1c[nH]c2ccccc12)NC(=O)[C@H](CCCNC(=N)N)NC(=O)[C@H](CO)NC(=O)[C@H](CC(N)=O)NC(=O)[C@H](C)NC(=S)Nc1ccc2c(c1)C(=O)OC21c2ccc(O)cc2Oc2cc(O)ccc21)[C@@H](C)O)[C@@H](C)CC)C(=O)O", "target": "GOPC (Homo sapiens, UniProt Q9HD26)", "test": "binding, fluorescence polarization", "conditions": "fluorescent reporter peptide", "measurement": "Kd", "value": "1.03 µM"}
